Published values of several laboratories.
Lines come from different studies, so protocols differ. Values joined by “and” are separate records of one study, mostly repeats; a detail may differ. ± gives the spread as reported.
Sequence of UniProt P24666 (whole entry, looked up): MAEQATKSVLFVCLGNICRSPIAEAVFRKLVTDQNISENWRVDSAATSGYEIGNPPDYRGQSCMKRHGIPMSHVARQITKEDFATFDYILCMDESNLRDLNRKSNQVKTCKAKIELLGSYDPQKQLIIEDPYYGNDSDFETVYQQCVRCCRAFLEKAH
Sequence of UniProt P50750 (whole entry, looked up): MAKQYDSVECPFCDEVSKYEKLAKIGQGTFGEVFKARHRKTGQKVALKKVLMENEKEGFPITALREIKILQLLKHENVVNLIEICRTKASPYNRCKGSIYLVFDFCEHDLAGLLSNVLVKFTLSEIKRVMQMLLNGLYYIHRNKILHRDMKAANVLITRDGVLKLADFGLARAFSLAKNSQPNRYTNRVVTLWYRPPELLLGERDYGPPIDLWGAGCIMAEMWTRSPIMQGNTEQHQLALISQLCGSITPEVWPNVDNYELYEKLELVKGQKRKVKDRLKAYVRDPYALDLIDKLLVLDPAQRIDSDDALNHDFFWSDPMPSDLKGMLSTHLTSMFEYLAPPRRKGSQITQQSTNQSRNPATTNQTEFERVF

Compound	tested on	assay	system	conditions	how to read	measurement	value
O=C(O)C(F)(F)C(F)(F)C(F)(F)C(F)(F)C(F)(F)C(F)(F)C(F)(F)F	–	RNA-seq pathway analysis, item: fatty acid β-oxidation genes	liver spheroids	top non-cytotoxic, 10 d	–	gene expression	increased
C[C@]12CC[C@H](O)C[C@H]1CC[C@@H]1[C@@H]2CC[C@]2(C)[C@@H](c3ccc(=O)oc3)CC[C@]12O	–	–	female nude mouse LCC2 xenograft	0.5 mg/kg, day 5, tamoxifen-resistant	–	tumour volume	36.3 mm3 and 27.9 mm3 and 38.6 mm3 and 35.3 mm3 and 47.4 mm3 and 42.5 mm3 and 39.8 mm3
COc1ccc(-c2ccc3ncc4c(c3c2)n([C@@H]2CCN(C)CC2(F)F)c(=O)n4C)cn1	–	–	mouse, sample A orthotopic PDX	7.5 mg/kg x 10, together with: 2.3 Gy radiation	–	survival	371 ± 131 days
CC[C@H](C)C[C@H](C)CCCCCCCCC(=O)N[C@H]1C[C@@H](O)[C@@H](NCCN)NC(=O)[C@@H]2[C@@H](O)CCN2C(=O)[C@H]([C@H](O)CCN)NC(=O)[C@H]([C@H](O)[C@@H](O)c2ccc(O)cc2)NC(=O)[C@@H]2C[C@@H](O)CN2C(=O)[C@H]([C@@H](C)O)NC1=O	–	calcein leakage	DOPC/DOPG/CHOL liposomes	concentration not given, together with: 20 wt% PEG-8000	–	fusion time constant	11 ± 3 min
COc1c(CCC[P+](c2ccccc2)(c2ccccc2)c2ccccc2)cc2c(c1OC)OCO2.[I-]	TK-10	SRB	–	–	–	GI50	-5.33 log M
CC12C(=O)C(C)(C(c3ccccc3)=C1c1ccccc1)C1(Br)C(=O)N(CCNCCN)C(=O)C21.O=C(O)C(F)(F)F.O=C(O)C(F)(F)F (centres unmarked)	–	HPLC, item: CO-release by-product	TRIS-sucrose buffer	pH 7.4, 4-5 °C	–	time to 50% conversion	1920 min and 2300 min and 1960 min and 1570 min
C[C@H]1O[C@@H](O[C@H]2CC[C@@]3(C)[C@@H](CC[C@]4(C)[C@@H]3C=C[C@]35OC[C@@]6(CCC(C)(C)C[C@H]63)[C@@H](O)C[C@]54C)[C@]2(C)CO)[C@H](O)[C@@H](O[C@@H]2O[C@H](CO)[C@@H](O)[C@H](O)[C@H]2O)[C@H]1O	–	item: PPAR-α	ethanol-fed mice, hepatic SIRT1 knockdown (AAV8-TBG-SIRT1), liver	dose not given, high dose, unit not given	baseline: AAV8-TBG-Null ethanol group	mRNA level	0.66 and 1.2 and 0.71 and 0.94
Cc1cn([C@H]2O[C@@H](CO[P@@](=O)(N[C@@H](C)C(=O)OC(C)C)Oc3ccccc3)[C@H](O)[C@H]2F)c(=O)[nH]c1=O	–	–	adults with chronic hepatitis B	50 mg, day 28	baseline: baseline	change in HBsAg	-0.09 log10 IU/mL
CCCC(CCC)C(=O)O	human coronavirus OC43	virus-induced cell killing	MRC-5	maximum over 10 doses	–	maximum inhibition	0.567%
O=C(O)/C=C/C(=O)O.Oc1cccc2[nH]cc(CCNCc3ccccc3)c12	–	–	C57BL/6J mice	subcutaneous, 0.3 mg/kg	baseline: pre-session baseline	body temperature change	0 ± 0.1 °C
C/C=C1\NC(=O)C(C(C)O)NC(=O)C(CCCN)NC(=O)C(CCO)NC(=O)C(CCN)NC(=O)C(CCN)NC(=O)C(NC(=O)CC(O)CCCCCCCCCCC)COC(=O)C(C(O)CCl)NC(=O)C(C(O)C(=O)O)NC1=O (centres unmarked)	–	calcein leakage	DOPC/DOPG/CHOL liposomes	concentration not given, together with: 20 wt% PEG-8000	–	fusion time constant	7 ± 1 min
COc1cc(Nc2ncc(F)c(Nc3ccc4c(n3)NC(=O)C(C)(C)O4)n2)cc(OC)c1OC	Low molecular weight phosphotyrosine protein phosphatase, isoform B (ACP1, Homo sapiens, UniProt P24666)	–	–	LMPTP-B	–	IC50	> 10 µM
CC(=O)c1c(C)c2cnc(Nc3ccc(C4CCN(CCS(C)(=O)=O)CC4)cn3)nc2n(C2CCCC2)c1=O	–	tumour growth	rat, MCF7 breast cancer model	oral, 40 mg/kg twice daily, 28 days	–	T/C	-25%
COc1cc2c(Oc3ccc4[nH]c(C)cc4c3F)ccnc2cc1OCC1(N)CC1	–	–	paediatric recurrent refractory sarcoma	8 mg/kg	–	grade 1 or 2 Hematuria	13.3%
COc1ccc(CCC2CCCC(CCc3ccc(OC)cc3)N2C[C@@H](O)CO)cc1.Cl (stereo in doubt)	–	–	rat striatal slices	concentration not given, basal, no methamphetamine	–	dopamine release	no effect
CC[C@H](C)[C@@H]1NC(=O)[C@@H]2CCCN2C(=O)[C@H](CC(C)C)NC(=O)[C@H](CC(C)C)NC(=O)CNC(=O)[C@@H](NC(=O)[C@@H](NC(=O)[C@H](CC(=O)O)NC(=O)CNC(=O)[C@@H](NC(=O)[C@H](C)NC(=O)CNC(=O)[C@H](CCCCN)NC(=O)[C@H](CC(C)C)NC(=O)[C@H](CC(C)C)NC(=O)[C@H](CCCCN)NC(=O)CNC(=O)[C@@H](NC(=O)[C@@H](N)CC(C)C)C(C)C)C(C)C)C(C)C)CSSC[C@@H](C(=O)O)NC1=O	–	RNA-seq, item: Lck	mouse, traumatic brain injury model, frontal cortex and hippocampus	dose not given	baseline: TBI alone	log2 fold change	-1.48
CN1CCN(S(=O)(=O)c2cc([N+](=O)[O-])ccc2N(CCOS(C)(=O)=O)CCOS(C)(=O)=O)CC1	–	–	NSG mice, sample BI PDX	intraperitoneal, 25 mg/kg weekly x3	baseline: treated over vehicle	EFS ratio (T/C)	7.5
C=CC(=O)Nc1cc(Nc2ncc(Cl)c(Nc3ccccc3C(=O)C(=O)N(C)C)n2)c(OC)cc1N1CCN(C)CC1	–	RECIST v1.1 best response	human EGFR T790M NSCLC	oral, 25 mg/day, per-protocol set	–	patients with stable disease	0%
Cc1cn(-c2cc(NC(=O)c3ccc(C)c(Nc4nccc(-c5cccnc5)n4)c3)cc(C(F)(F)F)c2)cn1	–	–	Alzheimer's disease patients	150 mg, 6 months, group mean	direction not given	CDR-SOB score	6.3 ± 2.4
CS(=O)(=O)c1ccc(-c2nnc(/C=C/c3nnc(-c4ccc(C#N)cc4)o3)n2-c2ccccc2Cl)nc1	–	RNA-seq GSEA, item: HALLMARK_UNFOLDED_PROTEIN_RESPONSE	organoids, small intestinal, Apc Q1405X, mouse	dose not given, knockout organoids	baseline: DMSO, direction not given	normalized enrichment score	-1.83
CC1=C(/C=C/C(C)=C/C=C/C(C)=C/C(=O)O)C(C)(C)CCC1	human coronavirus OC43	virus-induced cell killing	MRC-5	maximum over 10 doses	–	maximum inhibition	0%
C[C@H]1CN(c2n[nH]c3nc(N[C@H]4CC[C@H](NS(=O)(=O)CCC(F)(F)F)CC4)ncc23)CCO1	Cyclin-dependent kinase 9 (CDK9, Homo sapiens, UniProt P50750)	Kinobeads competition	HEK293, K562, placenta lysate	20 µM, unit not given	baseline: vehicle	remaining binding	0.86
Nc1ncnc2c1ncn2[C@@H]1O[C@@H]2COP(=O)(O)O[C@H]3[C@@H](O)[C@H](n4cnc5c(=O)[nH]cnc54)O[C@@H]3COP(=O)(O)O[C@H]2[C@H]1O	HFF-1	RNA sequencing, item: Reactome R-HSA-5627117	–	downregulated pathway	baseline: Zika virus alone	pathway fold enrichment	15
N=C(N)NCCC[C@@H]1NC(=O)[C@H](Cc2ccc(O)cc2)NC(=O)[C@@H](CCCCN)NC(=O)[C@@H](Cc2ccccc2)NC1=O	–	maximal contraction, partial agonist	guinea pig ileum	concentration not given	–	inhibition	60%
CC[C@H](C)[C@H](NC(=O)[C@H](Cc1ccccc1)NC(=O)[C@H](CCC(=O)O)NC(=O)[C@H](CCCNC(=N)N)NC(=O)[C@H](C)NC(=O)[C@H](C)NC(=O)[C@H](CCC(N)=O)NC(=O)[C@H](CCC(=O)O)NC(=O)[C@H](CCC(=O)O)NC(=O)[C@H](CC(C)C)NC(=O)[C@H](Cc1ccc(O)cc1)NC(=O)[C@H](CO)NC(=O)[C@H](CO)NC(=O)[C@@H](NC(=O)[C@H](CC(=O)O)NC(=O)[C@H](CO)NC(=O)[C@@H](NC(=O)[C@H](Cc1ccccc1)NC(=O)[C@@H](NC(=O)CNC(=O)[C@H](CCC(=O)O)NC(=O)[C@H](C)NC(=O)CCc1c[nH]cn1)[C@@H](C)O)[C@@H](C)O)C(C)C)C(=O)N[C@@H](C)C(=O)N[C@@H](Cc1c[nH]c2ccccc12)C(=O)N[C@@H](CC(C)C)C(=O)N[C@H](C(=O)N[C@@H](CCCNC(=N)N)C(=O)NCC(=O)N[C@@H](CCCNC(=N)N)C(=O)N[C@@H](CCCCNC(=O)COCCOCCNC(=O)COCCOCCNC(=O)CC[C@H](NC(=O)CCCCCCCCCCCCCCCCC(=O)O)C(=O)O)C(=O)NCC(=O)NCC(=O)N[C@@H](CO)C(=O)N[C@@H](CCCCNc1c(NCCCCCN(O)C(=O)CCC(=O)NCCCCCN(O)C(=O)CCC(=O)NCCCCCN(O)C(C)=O)c(=O)c1=O)C(=O)O)C(C)C [zirconium-89 labelled]	–	–	rat, femur	intravenous, 3 nmol/kg, 72 h	–	tissue uptake	0.14 %ID/g
CCCCC1(CCCC)CN(c2ccccc2)c2cc(SC)c(OCC(=O)N[C@@H](C(=O)NCC(=O)O)c3ccccc3)cc2S(=O)(=O)C1	–	item: HDL cholesterol	human, serum	5 mg once daily, day 1	–	serum HDL-C	48.1 mg/dL

Repeated from above:
Compound	tested on	assay	system	conditions	how to read	measurement	value
C/C=C1\NC(=O)C(C(C)O)NC(=O)C(CCCN)NC(=O)C(CCO)NC(=O)C(CCN)NC(=O)C(CCN)NC(=O)C(NC(=O)CC(O)CCCCCCCCCCC)COC(=O)C(C(O)CCl)NC(=O)C(C(O)C(=O)O)NC1=O (centres unmarked)	–	calcein leakage	DOPC/DOPG/CHOL liposomes	concentration not given, together with: 20 wt% PEG-8000	–	fusion time constant	7 ± 1 min
CS(=O)(=O)c1ccc(-c2nnc(/C=C/c3nnc(-c4ccc(C#N)cc4)o3)n2-c2ccccc2Cl)nc1	–	RNA-seq GSEA, item: HALLMARK_UNFOLDED_PROTEIN_RESPONSE	organoids, small intestinal, Apc Q1405X, mouse	dose not given, knockout organoids	baseline: DMSO, direction not given	normalized enrichment score	-1.83
